Experimental data collected from several papers.
± marks the error that the study gave.
Nuclear receptor subfamily 2 group C member 2 ligand-binding domain: Nuclear receptor subfamily 2 group C member 2, ligand-binding domain (Homo sapiens, UniProt P49116)
UniProt P49116, sequence (whole entry, looked up): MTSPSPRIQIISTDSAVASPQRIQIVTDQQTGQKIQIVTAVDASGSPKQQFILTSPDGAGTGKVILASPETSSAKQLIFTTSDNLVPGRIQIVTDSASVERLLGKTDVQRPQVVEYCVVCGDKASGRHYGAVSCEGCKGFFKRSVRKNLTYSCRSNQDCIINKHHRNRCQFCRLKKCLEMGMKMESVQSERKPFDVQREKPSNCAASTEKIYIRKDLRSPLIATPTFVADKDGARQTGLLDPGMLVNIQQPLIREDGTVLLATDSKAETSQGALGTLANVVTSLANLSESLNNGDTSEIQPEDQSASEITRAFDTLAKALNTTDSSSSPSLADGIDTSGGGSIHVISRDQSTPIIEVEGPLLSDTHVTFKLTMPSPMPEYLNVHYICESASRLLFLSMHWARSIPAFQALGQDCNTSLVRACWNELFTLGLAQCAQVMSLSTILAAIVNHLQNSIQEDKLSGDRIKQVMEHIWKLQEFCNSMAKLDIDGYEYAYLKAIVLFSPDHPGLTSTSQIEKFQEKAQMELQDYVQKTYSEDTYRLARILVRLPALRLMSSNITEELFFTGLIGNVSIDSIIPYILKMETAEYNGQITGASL

SMILES = O=C(O)C(O)Cc1ccc(O)cc1 (stereo not shown); system = human plasma; conditions = median; quantity = plasma concentration; value = 9270 nM
SMILES = COc1ccc2[nH]c([S+]([O-])Cc3ncc(C)c(OC)c3C)nc2c1 (stereo not shown); system = human male; conditions = oral, dose not given, 2 h; how to read = baseline: rifampicin-induced over baseline; quantity = R/S ratio change; value = 1.09
SMILES = CCN1CCN(Cc2ccc(NC(=O)c3ccc(C)c(NC(=O)c4cncc(-c5cccs5)c4)c3)cc2C(F)(F)F)CC1; test = LC-MS/MS; system = C57BL/6 mouse, plasma; conditions = intraperitoneal, 15 mg/kg single dose, 0.5 h; quantity = mean plasma concentration; value = 538 ng/mL
SMILES = CN[C@H](CC(C)C)C(=O)N[C@H]1C(=O)N[C@@H](CC(N)=O)C(=O)N[C@H]2C(=O)N[C@H]3C(=O)N[C@H](C(=O)N[C@H](C(=O)O)c4cc(O)cc(O)c4-c4cc3ccc4O)[C@H](O)c3ccc(c(Cl)c3)Oc3cc2cc(c3O[C@@H]2O[C@H](CO)[C@@H](O)[C@H](O)[C@H]2O[C@H]2C[C@](C)(N)[C@H](O)[C@H](C)O2)Oc2ccc(cc2Cl)[C@H]1O; system = C57BL/6N mouse H3, faeces; conditions = po, 0.5 mL, 20 mg/mL solution; quantity = elimination rate constant; value = 0.11 h⁻¹
SMILES = O=C(O)CCCOc1ccc([18F])cc1-c1cc(-c2ccccc2C(F)(F)F)n(-c2ccccc2)n1; test = gamma counting; system = male ddY mice, lung; conditions = intravenous, 2.1 MBq, 5 min; quantity = radioactivity uptake; value = 0.64 ± 0.1 SUV
SMILES = Cc1cc(C)c(CNC(=O)c2cc(Cl)c3c(c2C)O[C@@](C)([C@H]2CC[C@H](N(C)C)CC2)O3)c(=O)[nH]1; system = healthy Japanese male volunteers; conditions = oral, dose not given, with: fluconazole; quantity = TEAE incidence; value = 50%
SMILES = C[Si](C)(C)O[Si](C)(C)C; conditions = 7 to 48 µg/L, 20.0 °C; quantity = log KAW; value = 2.32
SMILES = CNC(=O)c1ccc(-c2cnc3ncc(Cc4ccc5ncccc5c4)n3n2)cc1F; test = phase 1 clinical trial, measured: upper abdominal pain; system = HCC expansion cohort; conditions = oral, 600 mg twice daily, grade 3 or 4; quantity = adverse event incidence; value = 0%
SMILES = CCC[C@@H]1C[C@@H](C(=O)N[C@@H]([C@H]2O[C@H](SC)[C@H](O)[C@@H](O)[C@H]2O)[C@@H](C)O)N(C)C1; test = starch gel membrane permeability; system = Gram-negative envelope surrogate; conditions = 200 µM, 60 min, pH 7.4; quantity = amount permeated; value = 2.87 nmol
SMILES = COc1cc(C(=O)NC2CCN(C)CC2)c(F)cc1Nc1ncc(C(F)(F)F)c(Oc2cccc3c2C(=O)N(C)C3)n1; system = human patients; conditions = oral, 100 mg, cycle 1 day 1, geometric mean; quantity = AUC(0-24); value = 13.1 µM·h
SMILES = O=C([O-])CN(CCN(CC(=O)[O-])Cc1cc(CCC(=O)NCCCCCC(=O)NCCCC[C@H](NC(=O)N[C@@H](CCC(=O)O)C(=O)O)C(=O)O)ccc1[O-])Cc1cc(CCC(=O)O)ccc1[O-].[68Ga+3].[OH3+]; test = PET/CT; system = human, prostatic lesion; quantity = SUVmax; value = 20.8
SMILES = O=Cc1ccc(O)c(O)c1; system = human plasma; conditions = median, both sexes; quantity = plasma concentration; value = 9.9 nM
SMILES = CC[C@@](N)(c1cnc(C(F)(F)F)c(Cl)c1)c1c2ccn(C3CC3)c(=O)c2nn1C; system = rat Sprague-Dawley male, plasma; conditions = intravenous, 1 mg/kg; quantity = CL; value = 1.23 ± 0.156 mL/min/kg
SMILES = C[C@]12CCC(=O)C=C1CC[C@@H]1[C@@H]2[C@@H](O)C[C@@]2(C)[C@H]1CC[C@]2(O)C(=O)CO; tested on = Nuclear receptor subfamily 2 group C member 2 ligand-binding domain; test = SPR imaging; quantity = Kd; value = 5.69 nM
SMILES = COc1cccc(OC)c1-c1cc(C(=O)NC2(C(=O)O)C3CC4CC(C3)CC2C4)nn1-c1ccc(C(=O)N(C)CCCN(C)CCCN(C)C(=O)CN2CCN(CC(=O)[O-])CCN(CC(=O)[O-])CCN(CC(=O)[O-])CC2)cc1C(C)C.[177Lu+3] (stereo not shown); system = mouse, HT-29 xenograft, heart; conditions = 4 h post injection; quantity = tissue uptake; value = 3.1 %ID/g
SMILES = CC(C)(C(=O)N1CCOc2c(C#N)cncc2C1)C(F)F; system = human, both sexes; conditions = oral, 40 mg single dose; quantity = subjects with cardiac disorder TEAE; value = 16.7%
SMILES = O=C(O)CCC(=O)O.[2H]C([2H])([2H])Oc1cc(C)c2[nH]ccc2c1CN1CC[C@@H](C2CC2)C[C@H]1c1ccc(C(=O)O)cc1; system = healthy Chinese subjects; conditions = 100 mg twice daily, multiple ascending dose; quantity = subjects with drug-related TEAE; value = 37.5%
SMILES = O=C1CC[C@H](N2Cc3cc(N4CCN(CC5CCN(c6ccc([C@@H]7c8ccc(O)cc8CC[C@@H]7c7ccccc7)cc6)CC5)CC4)ccc3C2=O)C(=O)N1; test = radiolabelled mass balance; system = Sprague-Dawley rat, urine; conditions = oral, 20 mg/kg; quantity = dose excreted; value = < 2%
SMILES = N[C@@H](Cc1ccc(O)c(O)c1)C(=O)O; system = MPTP-lesioned marmoset, dyskinetic; conditions = 20 mg/kg; quantity = duration of peak dyskinesia; value = 2 h
SMILES = Cc1cc(NC2CCN(C(=O)OC3CCN(C(=O)/C=C/CN(C)C)C3)CC2)n2ncc(C(C)C)c2n1 (stereo not shown); test = CTCAE v4.0, measured: Dyspepsia; system = patients with advanced solid tumours; conditions = oral, dose not given, all schedules, grade 3 or higher; quantity = patients with TEAE; value = 0%
SMILES = COc1cc2c3c(n(CCCN4CCOCC4)c(=O)c2cc1OC)-c1cc2c(cc1C3=O)OCO2; system = Fischer 344 rats, female; conditions = intravenous bolus, 12 mg/m^2; quantity = clearance; value = 29.3 L/h/m²
SMILES = Cc1cc(Nc2cc3ncccc3c(N[C@@H]3C[C@H]4CC[C@@H](C3)N4CCC#N)n2)n[nH]1; system = healthy human subjects; conditions = oral, 30 mg, 2 weeks, single ascending dose; quantity = sneezing incidence; value = 0%
SMILES = CCN1/C(=C/C(C)=O)Sc2ccc(F)cc21; system = cynomolgus monkey; conditions = oral, 30 mg/kg, 4 h post-dose; quantity = mean blood pressure; value = 87 ± 5 mmHg
SMILES = [H]/N=C(/N)N[C@H]1[C@H](O)[C@@H](O)[C@H](O[C@@H]2O[C@@H](C)[C@](O)(C=O)[C@H]2O[C@@H]2O[C@@H](CO)[C@H](O)[C@@H](O)[C@@H]2NC)[C@@H](N/C(N)=N\[H])[C@@H]1O; test = starch gel membrane permeability; system = Gram-negative envelope surrogate; conditions = 200 µM, 30 min, pH 7.4; quantity = amount permeated; value = 0.7 nmol
SMILES = O=C(O)[C@H]1O[C@@H](Oc2cc(O)cc(/C=C/c3ccc(O)cc3)c2)[C@H](O)[C@@H](O)[C@@H]1O; system = human, cerebrospinal fluid; quantity = samples above LOQ; value = 0%
SMILES = O=C(O)C1=CC(=C(c2ccc(O)c(C(=O)O)c2)c2ccc(O)c(C(=O)O)c2)C=CC1=O; system = mouse B16-F10 tumour-bearing, serum; conditions = dose not given, monotherapy; how to read = baseline: vehicle; quantity = serum IL-12p40 level; value = increased
SMILES = Cc1cc(-c2nccc3c2ccn3CC(=O)Nc2ccc(-c3cnccn3)cn2)ccn1; system = human; conditions = 5 mg once daily, multiple ascending dose; quantity = foreign body sensation; value = 0%
SMILES = CCc1cc(C(=O)NC)c2nccc(N3CCc4c(cc(Cn5ccnc5)cc4-c4cn(C)nc4C(F)(F)F)C3=O)c2c1; system = Sprague Dawley rats; conditions = oral, 100 mg/kg twice daily, 7 days; how to read = baseline: vehicle; quantity = serum ALP change; value = -1%
SMILES = Cc1c2oc3c(C)ccc(C(=O)N[C@@H]4C(=O)N[C@H](C(C)C)C(=O)N5CCC[C@H]5C(=O)N(C)CC(=O)N(C)[C@@H](C(C)C)C(=O)O[C@@H]4C)c3nc-2c(C(=O)N[C@@H]2C(=O)N[C@H](C(C)C)C(=O)N3CCC[C@H]3C(=O)N(C)CC(=O)N(C)[C@@H](C(C)C)C(=O)O[C@@H]2C)c(N)c1=O; test = LC-MS; system = children with cancer, plasma; conditions = dose not given, 22 h; quantity = minimum plasma concentration; value = 1.1 µg/L
SMILES = Cc1ccc(Sc2ccccc2N2CCNCC2)c(C)c1; test = measured: ALT increased; system = healthy adult women; conditions = oral, 5 mg daily, 12 days; quantity = participants with TEAE; value = 0%
SMILES = CNc1ccc(-c2nc3ccc(O)cc3s2)cc1 [carbon-11 labelled]; test = microPET/CT imaging; system = B6SJL mouse, normal, heart; conditions = intravenous, 10 min; quantity = SUV; value = 0.972 ± 0.306
SMILES = Cc1c(-c2ccc(N3CCc4cccc(C(=O)Nc5nc6ccccc6s5)c4C3)nc2C(=O)O)cnn1CC12CC3(C)CC(C)(C1)CC(OCCNCC[C@H](O)CO)(C3)C2; system = beagle dog, male, anaesthetised; conditions = intravenous infusion, 0.3 mg/kg/min, 30 min; how to read = baseline: vehicle; quantity = mean arterial pressure change; value = -18%
SMILES = N#Cc1ccc2c(c1)[C@H]1CCCN(C(=O)c3ccc4[nH]cnc4c3)[C@H]1C2; system = human females; conditions = 360 mg, end of trial; quantity = androstenedione; value = 3.5 nmol/L
SMILES = COc1ccc(C(=O)O)cc1OS(=O)(=O)O; system = human plasma; conditions = mean; quantity = plasma concentration; value = 2080 nM
SMILES = CO[C@H]1C[C@@H]2CC[C@@H](C)[C@@](O)(O2)C(=O)C(=O)N2CCCC[C@H]2C(=O)O[C@H]([C@H](C)C[C@@H]2CC[C@@H](O)[C@H](OC)C2)CC(=O)[C@H](C)/C=C(\C)[C@@H](O)[C@@H](OC)C(=O)[C@H](C)C[C@H](C)/C=C/C=C/C=C/1C; system = healthy adult horses; conditions = oral, 0.06 mg/kg, 0 h; quantity = heart rate; value = 31.5 ± 4.6 beats/min
SMILES = CCOC(=O)[C@@]12C[C@@H]1[C@@H](n1ccc3c(NC)nc(C#Cc4ccc(Cl)s4)nc31)[C@H](O)[C@@H]2O; system = Sprague-Dawley rat, male, plasma; conditions = oral, 10 mg/kg; quantity = AUC extrapolated share; value = 3.4%
SMILES = C[C@H]1CN(C(=O)CC#N)[C@]12CCN(c1ncnc3[nH]ccc13)C2; system = healthy Japanese males; conditions = oral, 100 mg single dose, mean; quantity = AUC(0-last); value = 3240 ng·h/mL
SMILES = Cc1ccc([C@@H]2O[C@H](CO)[C@@H](O)[C@H](O)[C@H]2O)cc1Cc1ccc(-c2ccc(F)cc2)s1; system = Japanese type 2 diabetes patients; conditions = 200 mg, day 17, 24 h urine collection; how to read = baseline: baseline; quantity = urinary sodium excretion change; value = -14.6 mEq
SMILES = CC(C)NC[C@H](O)COc1ccc(CCOCC2CC2)cc1; tested on = Nuclear receptor subfamily 2 group C member 2 ligand-binding domain; test = SPR imaging; quantity = Kd; value = 0.012 nM
SMILES = Cn1c(=O)c2c(ncn2C)n(C)c1=O; system = human, both sexes, cerebrospinal fluid; quantity = samples above LOQ; value = 97.8%
SMILES = CO[C@H]1/C=C/O[C@@]2(C)Oc3c(C)c(O)c4c(O)c(c(/C=N/N5CCN(C)CC5)c(O)c4c3C2=O)NC(=O)/C(C)=C\C=C\[C@H](C)[C@H](O)[C@@H](C)[C@@H](O)[C@@H](C)[C@H](OC(C)=O)[C@@H]1C; test = starch gel membrane permeability; system = Gram-negative envelope surrogate; conditions = 200 µM, 10 min, pH 7.4; quantity = amount permeated; value = 0.35 nmol
SMILES = Nc1nc2c(nc([N+](=O)[O-])n2[C@@H]2O[C@H](CO)[C@@H](O)[C@H]2O)c(=O)[nH]1; test = depurination, RP-HPLC; system = citrate-phosphate buffer 0.5 mM; conditions = 355 min, pH 2, 37 °C; quantity = nucleoside remaining fraction; value = 0.469
SMILES = Cc1c(Cl)c(C)[n+]([O-])c(Cl)c1-c1noc(-c2cc(O)c(O)c([N+](=O)[O-])c2)n1; system = healthy Chinese subjects; conditions = oral, 25 mg, 4 days; quantity = TEAE incidence; value = 13.3%
SMILES = O=C(Nc1cnccc1Cl)N1CCN(Cc2ccc3c(c2)OC(F)(F)O3)CC1; test = measured: Fatigue; system = human healthy young men; conditions = 25 mg, multiple dose; quantity = adverse event incidence; value = 0%
SMILES = CN1CCC[C@H](CN2c3ccccc3Sc3ccccc32)C1.Cl; system = Wistar rat female, plasma; conditions = oral, 16 mg/kg; quantity = Tmax; value = 6 h
SMILES = Cc1cc(-c2nnc(N)nc2-c2ccc(F)cc2)cc(Cl)n1; test = measured: psoriasiform dermatitis, grade ≥ 3; system = male IO-naive mCRPC patients; conditions = oral, dose not given; quantity = incidence of AE, immune-mediated, treatment-related; value = 0%
